Results gathered from unrelated publications.
A part holds a random share of what one study measured.

Block 1 — method: RNA Bind-n-Seq; molecule type: RNA; matrix: in vitro; tested at: 1 µM; setting: whole 134-nt RNA, ends assumed; with: 150 mM KCl; reference: input library; reading: higher = stronger binding
Target: Ras GTPase-activating protein-binding protein 1, RRM domain (G3BP1, Homo sapiens, UniProt Q13283)
Chain of UniProt Q13283 (whole entry, looked up): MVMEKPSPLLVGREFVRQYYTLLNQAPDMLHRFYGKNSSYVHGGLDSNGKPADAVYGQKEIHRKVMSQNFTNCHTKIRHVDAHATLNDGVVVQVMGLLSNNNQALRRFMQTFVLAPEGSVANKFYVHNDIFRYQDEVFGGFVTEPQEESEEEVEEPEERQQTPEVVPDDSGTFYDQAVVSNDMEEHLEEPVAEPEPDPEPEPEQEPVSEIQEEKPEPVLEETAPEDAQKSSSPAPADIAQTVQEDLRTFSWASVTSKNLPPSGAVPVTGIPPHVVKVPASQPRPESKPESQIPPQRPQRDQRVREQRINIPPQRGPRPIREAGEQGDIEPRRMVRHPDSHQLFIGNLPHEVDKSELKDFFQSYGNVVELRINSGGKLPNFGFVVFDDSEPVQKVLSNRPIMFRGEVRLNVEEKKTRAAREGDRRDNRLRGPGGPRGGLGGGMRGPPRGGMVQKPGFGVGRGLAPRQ
Shared flanks, not repeated: GGGAGUUCUACAGUCCGACGAUC … UGGAAUUCUCGGGUGUCAAGG
Oligonucleotide | log2 enrichment
CCUGUGCUACACAUCGUAUGUACCGAAUCGGGGCCCCCCGGGGCCCCCCGGGCCCCCCGGAAAGUAUUAUGUUACGCCGUUCGGAUCUGC | -0.651
CCUGUGCUACACAUCGUAUGUACCGAAUCGGGGAAAGGGGAAAAAGGGGUUUUUUUGGGGAAAGUAUUAUGUUACGCCGUUCGGAUCUGC | 0.682
UCAAGUCCUGUGCUACACAUCGUAUGUACCGAAUCGGAAAGGGAAAGGAAAGGGAAAGUAUUAUGUUACGCCGUUCGGAUCUGCACUUCC | -0.142
AGUCCUGUGCUACACAUCGUAUGUACCGAAUCGGGUUUUGGGGUUUUGGGGUUUUGGGAAAGUAUUAUGUUACGCCGUUCGGAUCUGCAC | 0.145
UAACUUUAGAGGAGGAUCUGAUGGAUAUGGCAGUGGACGUGGAUUUGGGGAUGGCUAUAAUGGGUAUGGAGGAGGUCCUGGAGGUGGCAA | -0.262
UCCUGUGCUACACAUCGUAUGUACCGAAUCGGGUUUUUUGGUUUUUUGGUUUUUUGGGGAAAGUAUUAUGUUACGCCGUUCGGAUCUGCA | -0.196
CACAGACAACACGCACCCACACAGACACAGAGGGAAGGGGUUGGGAUGGGGACAGAAAGCACAGCAGGGCGGGGUAGGACCCCAGCCCCU | -0.211
CAAGUCCUGUGCUACACAUCGUAUGUACCGAAUCGGGUUUGGGGUUUGGUUUGGGAAAGUAUUAUGUUACGCCGUUCGGAUCUGCACUUC | -0.396
UGUGCUACACAUCGUAUGUACCGAAUCGGGGCCCCCCCGGGCCCCCCCGGGGCCCCCCCGGGGAAAGUAUUAUGUUACGCCGUUCGGAUC | -0.829

Block 2 — method: RNA Bind-n-Seq; molecule type: RNA; matrix: in vitro; tested at: 365 nM; reference: no-protein control; reading: higher = stronger binding
Target: RNA binding protein fox-1 homolog 2, RRM domain, GST-SBP tag (RBFOX2, Homo sapiens, UniProt O43251-10, residues 100-194)
Setting: natural RNA segment, single round, ends assumed
Shared flanks, not repeated: GGGAGUUCUACAGUCCGACGAUC … UGGAAUUCUCGGGUGCCAA
Residues (chain): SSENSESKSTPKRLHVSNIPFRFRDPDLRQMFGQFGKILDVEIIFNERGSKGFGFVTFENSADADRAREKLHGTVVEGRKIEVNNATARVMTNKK
Oligonucleotide | RBNS enrichment (R)
CAAAGUGUAGCUGCUAGAGGGAUGACCUCUCCUUCAACUUGUCCUGAAGCACUUACAUUUAGUUGUUGAAAGCAGUAGUAGCAGACCAAGCUAGCCCCUUAUCCAGCCAA | 0.238
UGAGUCUUGGAAAACACCCCAACCCCGGAAAUGUGUGGGAAAAAGAAAACAAAAACUUUCCAAAUUCAACGGUCCUGUGCAGUUUUUUUGGGGGUGGGUGCUGUUAGAUC | 0.534
CUGAAUUCCUUGCAGAUGGUAGCAUUGUCUACCAGUUGGUUCAGUCUCCAUAGGACUUUCAUAUCAUCUGCUACAUUGAAAGAAUAAGAUAUACUGAUCCUAAAACCAAG | 0.392
AAGCUCUGAAGUUCUUCCUGCUGGCACCAAAUAUUAGGAUUACAAGCUGUCUCUCUGACACCAGUGGUAAAAAAGCAAGUAGAAUAGUUUCUGAGUCUGUGUUGCAGCCU | 0.346
AAUUGCAGCUCAUGUCCGUGGGUGUGUGCACGGGUGCAUAUGUUGGAAGGGGUGCCUGUCCCCUUGGGGACAGAAGGAAAAUGAAAGGCCCCUCUGCUCACCCUGGCCAU | 1.16
GGCCAUUAACACUGAUAAGUAUGAAUAUACAGAUAUGGCUUAGGUUUCUUCAAGAGGAAACAUAUUCUGUCCGAAGGAAACUGUAGUGCGAGCCCAGAGUGUUCAAAGGC | 0.651
UUCCUUGUUUUAGAGGAAGGUACUGCCUUUUUGGACUUAGGGAUGUCAUGGGACCUCAGUAACGAGGACCCCUAAUUUAUAAAGUACCAGAAAUGUGGGGAAGAAAGCAA | 0.226
GGAGAGCUUUGUGCCUAUACCCAGUGUGUGGCUUUCCUCCAACCCCUUCCCAGACUUGUGAUCCAUUCCCUGCAGCAAAGGAACACUGGAAGAAAGAUGGAGCUCCUCCA | 0.35

Block 3 — method: aptamer microarray, sandwich; molecule type: DNA with 2'F-ANA; matrix: in vitro; tested at: 200 nM; with: Cy3 exosite-II aptamer, 400 nM; reading: higher = stronger binding; oligonucleotide: GGTTGGTGTGGTTGG
Target: Prothrombin, mature alpha-thrombin (F2, Homo sapiens, UniProt P00734)
Setting: whole 15-mer aptamer, many near background
Modification | mean fluorescence intensity
2'F-ANA at 1 2 3 4 7 8 9 11 | 206 a.u.
2'F-ANA at 5 11 12 13 14 15 | 48.7 a.u.
2'F-ANA at 2 3 5 11 12 13 14 15 | 55.6 a.u.
2'F-ANA at 3 4 5 7 9 14 | 63.3 a.u.
2'F-ANA at 2 5 6 7 8 13 14 15 | 49.5 a.u.
2'F-ANA at 1 4 7 8 9 12 | 331 a.u.
2'F-ANA at 3 6 7 9 13 14 | 491 a.u.
2'F-ANA at 2 3 7 10 14 15 | 296 a.u.
2'F-ANA at 6 10 13 14 15 | 116 a.u.
2'F-ANA at 1 8 9 10 11 15 | 58.3 a.u.
2'F-ANA at 1 3 4 6 7 8 10 11 13 | 65.4 a.u.
2'F-ANA at 3 5 8 9 10 12 14 | 54 a.u.
2'F-ANA at 1 2 4 6 | 112 a.u.
2'F-ANA at 1 2 5 6 7 8 9 10 13 15 | 76.5 a.u.
2'F-ANA at 1 2 3 5 7 | 78.4 a.u.
2'F-ANA at 1 2 3 5 6 7 9 11 12 13 | 183 a.u.

Block 4 — method: protein binding microarray; molecule type: double-stranded DNA, one strand shown; matrix: in vitro; tested at: not given; reference: not given; reading: higher = stronger binding
Target: Histone acetyltransferase KAT6A, winged helix 1, GST fusion (KAT6A, Homo sapiens, UniProt Q92794, residues 1-85)
Setting: 8-mer, flanks averaged, mean of 2 arrays, mostly near background
Residues (chain): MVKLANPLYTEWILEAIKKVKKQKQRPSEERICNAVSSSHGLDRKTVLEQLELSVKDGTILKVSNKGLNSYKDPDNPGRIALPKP
Oligonucleotide | E-score
GTATCTTA | -0.004
AAGGATGG | -0.266
ACCTCGGC | 0.179
AAGGGAGG | -0.148
CTTGCCGA | -0.0059
GATCAGGA | -0.175
AGGCCCTG | -0.2
ATATTTCC | -0.0315
ACGTGCCG | 0.286
AGGCCAGC | 0.00931
AGTTTAAC | -0.158
GGACTAGA | -0.147
GACTTCAC | -0.0796
CACACAAC | -0.0959
AGACCCCG | 0.00012
AAGCAGGG | -0.188
CGAGGAAA | -0.146
CGATCGGC | 0.333
ACCGACTG | 0.0546
ATGTAGGA | -0.144
ACGATGCA | -0.118
